Measured values gathered from unrelated publications.
Numbered parts are unrelated; each lists some results of a single study. Changes are numbered by the printed parent chain.

Study 1 — method: RNA Bind-n-Seq; molecule type: RNA; sample: in vitro; tested at: 200 nM; setting: whole 134-nt RNA, ends assumed; together with: 150 mM LiCl; baseline: input library; direction: higher = stronger binding; measurement: log2 enrichment; all molecules: 7-deaza-guanosine replaces G
Target: Fragile X messenger ribonucleoprotein 1, C-terminal low-complexity region (Fmr1, Mus musculus, UniProt P35922)
Constant ends, left off below: GGGAGUUCUACAGUCCGACGAUC … UGGAAUUCUCGGGUGUCAAGG
GUCCUGUGCUACACAUCGUAUGUACCGAAUCGGGGAAAAAGGAAAAAGGGAAAAAGGGGAAAGUAUUAUGUUACGCCGUUCGGAUCUGCA: 0.546
ACUAUGCAGGUGGGCAUCUUUGGGAAGUGGGGCAAGGGGGGGAUAGGGAGGGGGGUAACACUUUGGGAACAGGUGGUCCCAGGUCGUUUC: 1.26
AAGUCCUGUGCUACACAUCGUAUGUACCGAAUCAAACCCAAACCCCCAAAUUUAAAAAAGUAUUAUGUUACGCCGUUCGGAUCUGCACUU: 1.18
UAACAUUAGAGGAGGAUCUGAUGGAUAUGGCAGUGGACGUGGAUUUGGGGAUGGCUAUAAUGGGUAUGGAGGAGGACCUGGAGGUGGCAA: 0.474
UUGGAUGAAGAUGGCAAAGUCCUGACCCCGGAGGAGCUGCUCUACCGGGUAAGGGGGCCUCCUCUGCCAGACCCUAGAGACCUCUCUGGG: -1.55
GCAGGAAGUAAAAACAAAUGGAAAUGCUUCGGAUAGUGGCAGGGGUGGGGGUUGCUAAGGAAAGGAUGGGAUGGGAGUGGGUAAAGAGUU: 1.48
UAACUUUAGAGGAGGAUCUGAUGGAUAUGGCAGUGGAGGUGGAUUUGGGGAUGGCUAUAAUGGGUAUGGAGGAGGACCUGGAGGUGGCAA: 0.535
GCAGGAAAUAAAAACAAAUGGAAAUGCUUCGGAUAGUGGCAGGGGUGGGGGUUGCUAAGGAAAGGGUGGGAUGGGAGUGGGUAAAGAGUU: 1.66
UCCUCCCUGGCUUCAGCCAGUCCCUGACGCUGAGCACUGGCUUCCGAGUCAUCAAGAAGAAGCUGUACAGCUCGGAACAGCUGCUCAUUG: -1.42
AAGUCCUGUGCUACACAUCGUAUGUACCGAAUCGGUUUUGGGUUUUGGGGUUUUGGAAAGUAUUAUGUUACGCCGUUCGGAUCUGCACUU: -1.51
UUCAAGGCCAUGAAGGACCUGUUUAUGCGGUGCAUGCUGUUUACCAGAGGAGGACAUCAGAUCCUGCAUUAUGUACACUGAUCGUUUCUG: -1.12

Study 2 — method: RNA Bind-n-Seq; molecule type: RNA; sample: in vitro; tested at: 365 nM; baseline: no-protein control; direction: higher = stronger binding; measurement: RBNS enrichment (R)
Target: RNA binding protein fox-1 homolog 2, RRM domain, GST-SBP tag (RBFOX2, Homo sapiens, UniProt O43251-10, residues 100-194)
Setting: natural RNA segment, single round, ends assumed
Constant ends, left off below: GGGAGUUCUACAGUCCGACGAUC … UGGAAUUCUCGGGUGCCAA
Residues (chain): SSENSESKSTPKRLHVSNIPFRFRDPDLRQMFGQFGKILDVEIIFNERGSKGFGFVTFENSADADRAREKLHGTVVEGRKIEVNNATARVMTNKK
UUUGAGAACCAAGUAAAACAAAACCACUGGGAGGAGUCUAUUUUAAAGAAUUCGGUUGAAAAAAUAGAUCCAAUCAGUUUAUACCCUAGUUAGUGUUUUGCCUCACCUAA: 0.867
AUUCAGACUAUUGUUGGCACUGUUUAGUAGUGACCACACGCUCUUCUACCCGGGAAGGAACAUAUGACGACAUGCUCCUCCCAUGUCCCCUGAUGGUGUCUGUUCCCACA: 0.38
UCUUCCUCCCUUCCUCCCCCUGCCUUCCUCUUAACCUAUGUGCUCAUCCUUGCUACUUGAGGCUGUUAUUUCCCUCCGAGUAUUUAAGGAGCCCAAACACCUUGGUCUUC: 0.634
CAUUAAAUCCAUUAGUAUUACAUUGCUUUCAAAGAGAAGGUGGGUGGAACUAUAAUUCAGCAUCUUUUACUGCAUUUAAAGAUGGGAGCAAACUUUUGUAUGGUUGGGAG: 0.93
UACCCAUGAGCUGUCGUCAUUCACAGAGCCCUGUGCCAGGCCGUGUUCUGUGCCUGCCUGCGGUGAUGUAGCCAGAAGCACGUACUCAGGUCAUCAAGCCGAGAGGGCGU: 1.15
UCUCUCAAAGAUACCUAGCCAGGCUCCUAACCAUGUUCUUCAACCAUUGAUUUUGUUUGAUUUCUGAUGUGGAAGUGCGGUCAUUCCUGGUUUAACUCACAGCAACUUUU: 0.656
AUGGCUGCUGUAUAUUUACUAUAUGGAGUUCUGAGUUAAAUACCAUCCUUAAUACUGGGAACAGAAUACAACCCAUAUAAAUCAGAUGCAGGUGGUAGUCACAUCACCAG: 0.42
UGCCGUCUGGCAUUUUAGUUUAAUACAAACUAAUGAUUGCAUUUGAAAGAGAUUCUUGACCUUAUUUCUAAACGUCUAGAGCUCUGAAAUGUCUUGAUGGAAGGUAUUAA: 0.412
UCCUCAUGUGUGCAUGUGUGCCAGAGCGCCAGGCAGGGUGGUUGCCUCAUCACCUCAUGGCCAAUUUGCACUUUGCCAGACUGGAUGGAAUAGAGAAGGGUCCUGUGGAG: 1.57
CUAUGUUUUCAAUUACCUAAAGACAUAGGAUAAUAGUUUUUUUUAAGUUAGAAUUUUACCUCAUAAAAUUUUUUGAGGUUUGAUGUAUGUCUCUGUCUUAUCAAUAAUGA: 2.26
GCUUUGAGGUUGUUCACGAAACUAGAAAUGUCAUUCCAGCUUGAUUGUUUUAUCAUCAGCCAAGUUAAACCCCUGCUUCCUGCCUUUUACACCUAUUGCGUGAACAGAAU: 0.27
AGCAUAGUGGAAGAAAAAAUUUCAGAAGCAAAGUAGCCAAGCACAUGUUAGGAUGGCCACGAAUGCUUGGUCAGAGUCCUUCCUUCCCUUGCUCAGCAGCGGACUUACUC: 0.996

Study 3 — method: protein-binding microarray; molecule type: double-stranded DNA, one strand shown; sample: in vitro; tested at: 2200 nM top; setting: 60-bp whole probe; together with: salmon DNA 0.4 mg/ml; baseline: random background probes; direction: higher = stronger binding; measurement: fitted relative affinity; constant ends, left off below: GCCTAGCAC … GTCTTGATTCGCTTGACGCTGCTG
Target: Interferon regulatory factor 7, full length, phosphomimetic (IRF7, Homo sapiens, UniProt Q92985, residues 1-503, S471D/S472D/S475D/S476D/S477D/S483D/S484D/S487D)
Construct (chain): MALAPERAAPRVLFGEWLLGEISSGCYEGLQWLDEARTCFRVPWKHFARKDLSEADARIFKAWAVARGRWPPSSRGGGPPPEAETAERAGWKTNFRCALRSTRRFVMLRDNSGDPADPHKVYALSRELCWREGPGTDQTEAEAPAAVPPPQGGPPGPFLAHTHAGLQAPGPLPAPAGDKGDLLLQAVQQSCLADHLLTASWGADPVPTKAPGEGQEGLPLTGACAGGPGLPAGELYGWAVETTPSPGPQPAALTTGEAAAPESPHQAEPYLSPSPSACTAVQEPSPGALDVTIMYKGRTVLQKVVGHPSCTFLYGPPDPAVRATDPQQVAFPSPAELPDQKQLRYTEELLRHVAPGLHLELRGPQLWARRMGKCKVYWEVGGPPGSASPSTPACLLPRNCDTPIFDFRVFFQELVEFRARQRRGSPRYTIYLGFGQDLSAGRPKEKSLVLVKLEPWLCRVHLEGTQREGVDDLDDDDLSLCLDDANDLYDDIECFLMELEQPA
TTAGAACTGAGTATAGATTAGTGCTAG: -0.681 z-score
GACGGTATCGACACTGGAGACGTGCTA: -0.28 z-score
TCATGTACATCTCTCTTACTGTGCTAG: 1.82 z-score
TTAGATCTGGGGACTGGATTAGTGCTA: -0.286 z-score
TCACGGGCTTCTTTTTCTACTGTGCTA: 0.258 z-score
TTAGATATCAGTTTCGATTTGTGCTAG: 11.8 z-score
TCCAGGGCGGTGGGTGGCCCGTGCTAG: -1.35 z-score
TCACCTTTATGTCCTGTACTGTGCTAG: 2.12 z-score
TTAGGTTTCCTTATCCTGTAGTGCTAG: 2.32 z-score
GTCTCTGTTCTTTTCAGTCCGTGCTAG: 2.16 z-score
TTAGGTATCGGGACTTGGTTAGTGCTA: 0.0753 z-score
TTAGGTATCCGTCTCGGTTAGTGCTAG: 0.429 z-score
GACGGCCTGCTACTGCTGACGTGCTAG: -0.447 z-score
TCACTCATGGCTTTGTAGATGTGCTAG: 0.774 z-score
AACGGTATCCTTTTCCTGACGTGCTAG: 1.51 z-score
TTAGGTATCCTACTGCTGTAGTGCTAG: 0.383 z-score
TGGTAATTCTTTGCTCATTTTGTGCTA: 0.46 z-score
GACGGTATCGTCTATCGGGACGTGCTA: 0.088 z-score
TCAGTTTACATTTTCCAACTGTGCTAG: 3.74 z-score
CTGCCTTCAGAGCTGTCTGTGTGCTAG: 0.355 z-score
GACGATCTCACTTTCGAGACGTGCTAG: 5.23 z-score
TTGGGTTCCGGTTTCGGTTAGTGCTAG: 8.14 z-score
TTAGGTATCCTTCACCTTTAGTGCTAG: 0.785 z-score
ATTCCTCTCACCTCGGCCTCGTGCTAG: 1.72 z-score
GACGGTTTCCACTTTCGGGACGTGCTA: 7.7 z-score

Study 4 — target: CCND3, cyclin fold, Cln2 fusion (human); method: yeast growth competition, sequencing; sample: yeast; setting: weak parent motif; baseline: not given; direction: higher = stronger binding; measurement: normalised enrichment score
Starting sequence: LLGL2 docking peptide (human); KSLKKSLRQSFRR
S10A: 0.0753
L7A: 0.253
L3A: 0.229
Q9A: 0.797
K4A: 0.445
R8A: 0.691
S6A: -0.437
